Experimental data collected from several papers.
Each numbered part is a random draw from the data of one study; scales do not carry over between parts. Changes are numbered by the printed parent chain.

Set 1
Target: XBP1, bZIP domain (human)
Method: DHFR protein complementation
Matrix: yeast
Notes: single substitutions, most at no-binding floor
Relative to: wild-type JUN-FOS pair
Reading: higher = stronger binding
Starting sequence: JUN, bZIP domain (human); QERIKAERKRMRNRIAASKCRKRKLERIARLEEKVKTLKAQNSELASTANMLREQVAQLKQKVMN; partner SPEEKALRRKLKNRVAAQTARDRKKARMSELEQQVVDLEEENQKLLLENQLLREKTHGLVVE
| Variant | binding fitness [natural log] |
| --- | --- |
| N42P | -1.44 |
| A49E | -1.42 |
| R53D | -1.6 |
| E54S | -1.15 |
| L52C | -1.5 |
| L52I | -1.32 |
| L31I | -1.56 |
| E32H | -1.42 |
| I28A | -1.44 |
| L45T | -1.46 |
| A29K | -0.811 |
| K34E | -1.35 |
| L52T | -1.46 |
| E44M | -0.852 |
| L52W | -1.48 |
| A29P | -1.44 |
| I28E | -1.04 |
| A57G | -0.694 |
| K34W | -1.34 |
| E44H | -0.911 |
| S43I | -0.683 |
| L31D | -1.44 |

Set 2
Target: ABI1, truncated, D143A, DHFR fusion (Arabidopsis thaliana)
Method: DHFR PCA, deep sequencing
Matrix: yeast
Notes: methotrexate growth selection, single substitutions
Added: (+)-ABA 0.0091 µM
Relative to: wild-type fitted maximum
Reading: higher = stronger binding
Starting sequence: PYL1, truncated, DHFR fusion (Arabidopsis thaliana); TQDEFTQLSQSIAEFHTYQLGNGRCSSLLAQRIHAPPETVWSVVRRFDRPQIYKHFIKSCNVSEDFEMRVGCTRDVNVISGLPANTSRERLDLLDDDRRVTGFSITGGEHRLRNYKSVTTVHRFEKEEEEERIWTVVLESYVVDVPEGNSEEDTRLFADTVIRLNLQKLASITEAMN; partner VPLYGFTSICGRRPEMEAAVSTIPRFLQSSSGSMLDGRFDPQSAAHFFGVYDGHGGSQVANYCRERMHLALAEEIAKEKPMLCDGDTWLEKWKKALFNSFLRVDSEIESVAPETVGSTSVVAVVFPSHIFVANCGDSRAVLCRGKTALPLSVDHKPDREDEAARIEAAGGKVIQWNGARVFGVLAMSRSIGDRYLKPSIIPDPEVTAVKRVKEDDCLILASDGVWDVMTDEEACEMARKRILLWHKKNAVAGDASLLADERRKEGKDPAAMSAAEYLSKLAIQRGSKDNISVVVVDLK
| Variant | relative binding score [%] |
| --- | --- |
| M68K | 0.0281 |
| F15C | -1.65 |
| V143K | -8.54 |
| R24E | 4.08 |
| V118S | 8.11 |
| R163V | -1.44 |
| I79M | 13.2 |
| E4D | 18.3 |
| E14C | 0.455 |
| N22G | 22.4 |
| D92E | -0.378 |
| I172Q | -8.57 |
| E125H | 40.4 |
| S59M | -3.36 |
| S171F | 15.6 |
| R132I | 5.08 |
| N165D | 9.91 |
| Q167L | 17.8 |
| E151P | 45.2 |
| A170P | -4.06 |

Set 3
Target: Interferon regulatory factor 5, full length, phosphomimetic (IRF5, Homo sapiens, UniProt Q13568-2, residues 1-514, S451D/S453D/S456D/S462D)
Method: protein-binding microarray
Form: double-stranded DNA, one strand shown
Matrix: in vitro
Tested at: 940 nM top
Notes: 60-bp whole probe
Added: salmon DNA 0.4 mg/ml
Relative to: random background probes
Reading: higher = stronger binding
All sequences stand within: GCCTAGCAC … GTCTTGATTCGCTTGACGCTGCTG
| Sequence | fitted relative affinity |
| --- | --- |
| TTGATTGTGGCTTTTTAATGGTGCTAG | 0.0069 z-score |
| GACGGACTGCTTCTCCTGACGTGCTAG | -0.106 z-score |
| GACGATTTCAGGACTGGAGACGTGCTA | -0.17 z-score |
| GACGATTTCAGTCTAGAGACGTGCTAG | 0.45 z-score |
| GACGGACTGGACGTTCGGGACGTGCTA | -0.815 z-score |
| CTTTTTATGCTTTCTTTAACTGTGCTA | 1.51 z-score |
| GATGGTATCGGGTATCGGGACGTGCTA | 7.02 z-score |
| GAAGGTATCGACTATCGGGACGTGCTA | 3.7 z-score |
| TTAGGTTTCGACTAACGGTTAGTGCTA | 10.3 z-score |
| TCATCATTCCAATTCTTACTGTGCTAG | 1.24 z-score |
| TTAGGTTCCCTTTTCATTTAGTGCTAG | 1.09 z-score |
| TTAGGTCTCCTTCTCTTTTAGTGCTAG | 0.376 z-score |
| GACGTTATCGGTCTCGGGACGTGCTAG | 0.923 z-score |
| GACGATATCAGTCTCGATACGTGCTAG | 2.83 z-score |
| GACGCACTGGGGACTGGAGACGTGCTA | -0.138 z-score |
| GACGAACTGAGTCTGGAGACGTGCTAG | -0.574 z-score |
| GGTATTATTTATTGTAGCCTCGTGCTA | 0.514 z-score |
| TTAGTACTGGACTTTCGGTTAGTGCTA | 2.36 z-score |
| GACGGTTTCGGACAGGGGACGTGCTAG | 6.3 z-score |
| ATAGATATCGGGTATCGATTAGTGCTA | 2.77 z-score |
| GAACATACTGATTTCCACTTGTGCTAG | 0.695 z-score |
| AACTTTGGTATCTGGCATCTGTGCTAG | 1.38 z-score |
| TTAGATCTCAGTTTCAATTAGTGCTAG | 2.51 z-score |

Set 4
Target: CCNA1, cyclin fold, Cln2 fusion (human)
Method: yeast growth competition, sequencing
Matrix: yeast
Notes: weak parent motif
Relative to: not given
Reading: higher = stronger binding
Starting sequence: RBL1 docking peptide (human); GSAKRRLFGEDPP
| Variant | normalised enrichment score |
| --- | --- |
| P12E | 0.738 |
| F8L | 0.356 |
| E10S | 0.771 |
| D11F | 0.244 |
| P13T | 0.532 |
| R6M | 0.453 |
| S2F | 0.259 |
| L7T | 0.0439 |
| G1P | 0.435 |
| G9K | 0.358 |
| S2I | 0.463 |
| D11G | 0.573 |
| P13L | 1.06 |
| G9H | 0.457 |
| G1C | 0.295 |
| E10R | 0.465 |
| L7E | 0.221 |
| A3R | 0.38 |

Set 5
Target: UBE2H UBC core domain (UniProt P62256)
UniProt P62256, sequence (whole entry, looked up): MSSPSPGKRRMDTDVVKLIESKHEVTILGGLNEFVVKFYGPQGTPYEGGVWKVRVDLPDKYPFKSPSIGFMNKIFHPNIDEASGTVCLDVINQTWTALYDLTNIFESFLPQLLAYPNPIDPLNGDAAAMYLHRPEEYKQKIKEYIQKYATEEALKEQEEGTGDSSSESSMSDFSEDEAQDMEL
Method: yeast two-hybrid
Matrix: yeast
Notes: mostly zero background
Relative to: not given
Reading: higher = stronger interaction
B1: RNF25 RING domain (UniProt Q96BH1); chain LTDNNIPHGQCVICLYGFQEKEAFTKTPCYHYFHCHCLARYIQHMEQELKAQGQEQEQERQHATTKQKAVGVQCPVCREPLVYDLASL
B2: UHRF2 RING domain (UniProt Q96PU4); chain CGGDPEKKCHSCSCRVCGGKHEPNMQLLCDECNVAYHIYCLNPPLDKVPEEEYWYCPSCKTDSSEVVKAGER
B3: TRIM8 RING domain (UniProt Q9BZR9); chain WKNCFEEELICPICLHVFVEPVQLPCKHNFCRGCIGEAWAKDSGLVRCPECNQAYNQKPGLE
B4: PHF21A RING domain (UniProt Q96BD5); chain SPTSTDGDIHEDFCSVCRKSGQLLMCDTCSRVYHLDCLDPPLKTIPKGMWICPRCQDQMLKKEEAIPW
B5: MID1 RING domain (UniProt O15344); chain METLESELTCPICLELFEDPLLLPCAHSLCFNCAHRILVSHCATNESVESITAFQCPTCRHVITLSQRGL
| Sequence | lacZ reporter activity |
| --- | --- |
| VTLSLTLPITCHICLGKVRQPVICINNHVFCSICIDLWLKNNSQCPACRVPITPENPCK (OBI1 RING domain (UniProt Q5W0B1)) | 0 |
| YWAMDSTFELCKICAESNKDVKIEPCGHLLCSCCLAAWQHSDSQTCPFCRCEIKGWEAVS (CBLC RING domain (UniProt Q9ULV8)) | 0 |
| PEELQAMDNVCIICREEMVTGAKRLPCNHIFHTSCLRSWFQRQQTCPTCRMDVLRASLPA (SYVN1 RING domain (UniProt Q86TM6)) | 0 |
| B1 (RNF25 RING domain) | 0 |
| QLRRLQEERTCKVCMDKEVSVVFIPCGHLVVCQECAPSLRKCPICRGIIKGTVRTF (BIRC2 RING domain (UniProt Q13490)) | 0 |
| FPEHFVKSISCQICEHILADPVETNCKHVFCRVCILRCLKVMGSYCPSCRYPCFPTDLES (RAG1 RING domain (UniProt P15918)) | 0 |
| B2 (UHRF2 RING domain) | 0 |
| B3 (TRIM8 RING domain) | 0 |
| B4 (PHF21A RING domain) | 0 |
| EDEVSDNSAECVVCLSDVRDTLILPCRHLCLCNTCADTLRYQANNCPICRLPFRALLQIR (RNF157 RING domain (UniProt Q96PX1)) | 0 |
| QLQDIKEQTMCPVCLDRLKNMIFLCGHGTCQLCGDRMSECPICRKAIERRILLY (MIB1 RING domain (UniProt Q86YT6)) | 0 |
| DAIPSLSECQCGICMEILVEPVTLPCNHTLCKPCFQSTVEKASLCCPFCRRRVSSWTRYH (RNF168 RING domain (UniProt Q8IYW5)) | 0 |
| QHHELTSLFECPVCFDYVLPPILQCQAGHLVCNQCRQKLSCCPTCRGALTPSIRNL (SIAH2 RING domain (UniProt O43255)) | 0 |
| FASPPDSNFVCSVCHGVLKRPARLPCSHIFCKKCILRWLARQKTCPCCRKEVKRKKVVH (RNF151 RING domain (UniProt Q2KHN1)) | 0 |
| B5 (MID1 RING domain) | 0 |
